Experimental data pooled from the literature.
Numbered parts are unrelated; each lists some results of a single study. Positions count from the first letter of the parent shown.

Study 1 — target: CREB3L1, bZIP domain (human); method: DHFR protein complementation; matrix: yeast; reference: wild-type JUN-FOS pair; direction: higher = stronger binding
Setting: single substitutions, most at no-binding floor
Parent: JUN, bZIP domain (human); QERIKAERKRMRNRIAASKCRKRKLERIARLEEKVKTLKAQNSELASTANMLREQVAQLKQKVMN; partner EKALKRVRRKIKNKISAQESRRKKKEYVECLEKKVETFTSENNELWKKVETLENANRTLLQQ
For `K39Y`, the binding fitness was -1.51 natural log.
For `M51H`, the binding fitness was -1.45 natural log.
`K39L` gave a binding fitness of -1.29 natural log.
The binding fitness of `R30K` is reported as -1.41 natural log.
`R53G` has a binding fitness of -1.49 natural log.
For `E33Q`, the binding fitness was -1.51 natural log.
For `T48G`, the binding fitness was -1.5 natural log.
The binding fitness of `A46M` is reported as -1.49 natural log.
`K39R` has a binding fitness of -1.41 natural log.
With `K36D` the binding fitness was -1.48 natural log.
`V56S` has a binding fitness of -1.49 natural log.
The binding fitness of `V56N` is reported as -1.33 natural log.
`E54K` has a binding fitness of -1.46 natural log.
The binding fitness of `E32A` is reported as -1.38 natural log.
`L52D` has a binding fitness of -1.39 natural log.
With `R30T` the binding fitness was -1.31 natural log.
The binding fitness of `T37H` is reported as -1.37 natural log.
The binding fitness of `L31C` is reported as -1.47 natural log.
`T48H` gave a binding fitness of -1.31 natural log.
With `T37D` the binding fitness was -1.51 natural log.
`N42V` has a binding fitness of -1.46 natural log.
`L31K` gave a binding fitness of -1.51 natural log.
For `E44P`, the binding fitness was -1.51 natural log.

Study 2 — method: RNA Bind-n-Seq; molecule type: RNA; matrix: in vitro; tested at: 1 µM; setting: whole 134-nt RNA, ends assumed; added: 150 mM KCl; reference: input library; direction: higher = stronger binding
Target: Ras GTPase-activating protein-binding protein 1, C-terminal RGG region (G3BP1, Homo sapiens, UniProt Q13283)
UniProt Q13283, sequence (whole entry, looked up): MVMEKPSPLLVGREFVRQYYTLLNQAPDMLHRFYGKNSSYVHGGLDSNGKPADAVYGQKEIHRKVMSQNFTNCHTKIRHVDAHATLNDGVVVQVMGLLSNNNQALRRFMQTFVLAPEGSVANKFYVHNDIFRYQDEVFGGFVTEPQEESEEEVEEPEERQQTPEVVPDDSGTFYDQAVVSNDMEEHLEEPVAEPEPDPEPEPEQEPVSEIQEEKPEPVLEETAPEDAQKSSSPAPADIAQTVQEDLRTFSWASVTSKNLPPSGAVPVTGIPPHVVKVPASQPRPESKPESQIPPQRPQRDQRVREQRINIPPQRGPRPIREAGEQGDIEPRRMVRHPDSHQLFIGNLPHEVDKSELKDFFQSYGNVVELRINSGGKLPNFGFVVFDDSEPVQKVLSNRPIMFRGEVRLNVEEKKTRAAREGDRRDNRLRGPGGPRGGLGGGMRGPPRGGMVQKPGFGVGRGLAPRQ
`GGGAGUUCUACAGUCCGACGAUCCAAGUCCUGUGCUACACAUCGUAUGUACCGAAUCGGUUUUGGGGUUUUGGUUUUGGAAAGUAUUAUGUUACGCCGUUCGGAUCUGCACUUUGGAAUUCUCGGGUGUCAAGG` has a log2 enrichment of -1.35.
`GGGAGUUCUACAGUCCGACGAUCUCCUGUGCUACACAUCGUAUGUACCGAAUCGGGGAAAAAGGGGUUUUUUUGGGGAGGGGAAAGUAUUAUGUUACGCCGUUCGGAUCUGCAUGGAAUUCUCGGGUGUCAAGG` gave a log2 enrichment of 1.68.
`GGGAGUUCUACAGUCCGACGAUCACCAUGCAGGUGGGCAUCUUUGGGAAGUGGGGCAAGGGGGGGAUAGGGAGGGGGGUAACACUUUGGGAACAGCUGGUCCCAGGUCGUUUCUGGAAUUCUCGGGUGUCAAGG` gave a log2 enrichment of 2.13.
`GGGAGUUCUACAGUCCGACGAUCUGGCCCUGGUGGCAUGCGGGGAGGAAGAGGUAGCCUCAUGGAUCGUGGUGGUCCCGGUGGAAUGUUCAGAGGUGGCCGUGGUGGAGACAGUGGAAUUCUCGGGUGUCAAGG` has a log2 enrichment of 1.76.
`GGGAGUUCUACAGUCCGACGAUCUUUUCAUACCGAUCUAGAGUUCGUCCUUGCGUGGUUUAUGGUGGUGCCGAUAUUGGUCAGCAGAUUCGAGACUUGGAACGUGGAUGCCAUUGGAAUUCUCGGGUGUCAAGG` has a log2 enrichment of -0.00777.
`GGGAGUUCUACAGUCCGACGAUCUUAAUGAUAUAAGUAGAGAGUAGUAUCCUGGUGGAGUUGUAACCACUAUUUUUGUUUUCUAGAUCCCUAUGGUUCAGGAGGCCAGAAAUUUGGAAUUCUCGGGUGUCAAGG` has a log2 enrichment of -1.35.
With `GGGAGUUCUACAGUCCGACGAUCCUCAAGUCCUGUGCUACACAUCGUAUGUACCGAAUCGGAAGGGAAGGGGAAGGGAAAGUAUUAUGUUACGCCGUUCGGAUCUGCACUUCCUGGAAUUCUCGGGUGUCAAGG` the log2 enrichment was 0.105.
The log2 enrichment of `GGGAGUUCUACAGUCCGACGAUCUCCUGUGCUACACAUCGUAUGUACCGAAUCGGGGAGGGGAAAAAGGGGAAAAAAAGGGGAAAGUAUUAUGUUACGCCGUUCGGAUCUGCAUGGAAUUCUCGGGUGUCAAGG` is reported as 1.01.
For `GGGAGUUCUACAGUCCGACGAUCGUCCUGUGCUACACAUCGUAUGUACCGAAUCGGGCCCCGGGGCCCCGGGGCCCCGGGGAAAGUAUUAUGUUACGCCGUUCGGAUCUGCACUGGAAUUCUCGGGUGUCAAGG`, the log2 enrichment was -1.33.

Study 3 — method: protein binding microarray; molecule type: double-stranded DNA, one strand shown; matrix: in vitro; tested at: not given; reference: not given; direction: higher = stronger binding
Target: Histone acetyltransferase KAT6A, winged helix 2, GST fusion (KAT6A, Homo sapiens, UniProt Q92794, residues 85-181)
Setting: 8-mer, flanks averaged, mean of 2 arrays, mostly near background
Construct (chain): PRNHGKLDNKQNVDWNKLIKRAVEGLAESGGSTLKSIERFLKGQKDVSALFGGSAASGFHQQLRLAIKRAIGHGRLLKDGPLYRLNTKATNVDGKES
For `TCCTAAGA`, the E-score was -0.0478.
`ACTTTTAC` gave an E-score of 0.0193.
For `AGAGCTCT`, the E-score was -0.289.
`GCGTCATA` gave an E-score of 0.0966.
With `AAACTGAA` the E-score was -0.0604.
With `CGCTAGTA` the E-score was 0.122.
`CTATGGCC` has an E-score of -0.0485.
With `CGCTGAGC` the E-score was -0.00602.
With `CGTCATCA` the E-score was -0.161.
For `CAGTTTAG`, the E-score was -0.0644.
For `CCCGAACG`, the E-score was 0.0231.
`GTGTGGGA` gave an E-score of 0.0646.
`CATTGTGC` has an E-score of -0.0834.
`ATTATATC` gave an E-score of -0.0829.
`CTCCGGCC` gave an E-score of 0.0376.
`TCAAAAAA` has an E-score of 0.149.
For `AGCCGTAT`, the E-score was 0.0159.

Study 4 — method: protein-binding microarray; molecule type: double-stranded DNA, one strand shown; matrix: in vitro; tested at: 2540 nM top; setting: 60-bp whole probe; added: salmon DNA 0.4 mg/ml; reference: random background probes; direction: higher = stronger binding; all sequences stand within: GCCTAGCAC … GTCTTGATTCGCTTGACGCTGCTG
Target: Interferon regulatory factor 3, full length, phosphomimetic (IRF3, Homo sapiens, UniProt Q14653, residues 1-427, S386D/S396D/S398D/S402D/T404D/S405D)
UniProt Q14653, sequence (whole entry, unmodified, looked up): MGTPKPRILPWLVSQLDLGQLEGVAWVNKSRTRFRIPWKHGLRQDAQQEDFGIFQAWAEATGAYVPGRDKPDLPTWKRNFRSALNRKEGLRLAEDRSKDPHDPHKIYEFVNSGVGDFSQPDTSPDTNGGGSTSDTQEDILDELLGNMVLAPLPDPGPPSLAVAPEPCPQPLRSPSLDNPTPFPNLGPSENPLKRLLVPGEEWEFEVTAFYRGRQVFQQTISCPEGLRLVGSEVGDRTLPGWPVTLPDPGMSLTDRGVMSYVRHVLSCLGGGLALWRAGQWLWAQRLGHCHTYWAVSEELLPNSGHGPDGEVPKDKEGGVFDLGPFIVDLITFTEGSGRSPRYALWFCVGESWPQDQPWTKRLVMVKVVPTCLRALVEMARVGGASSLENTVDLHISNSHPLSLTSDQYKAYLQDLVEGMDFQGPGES
For `TTAGATCTCAGTTTCGATTTGTGCTAG`, “fitted relative affinity” read 5.6 z-score.
`TTAGGCCTGGGGACTGGGTTAGTGCTA` — result for “fitted relative affinity”: -1.34 z-score.
`AACGAACTGAGACTGGAGACGTGCTAG`: “fitted relative affinity” -0.245 z-score.
`GTAGATCTCAGTTTCGATTAGTGCTAG`: “fitted relative affinity” 3.82 z-score.
`GACGGACTGCTTATCCTGACGTGCTAG`: “fitted relative affinity” -0.362 z-score.
`TTAGGCTTCGGGTTTCGGTTAGTGCTA` — result for “fitted relative affinity”: 2.14 z-score.
`GAAGAACTGAGTCTCGAGACGTGCTAG`: “fitted relative affinity” -0.609 z-score.
`TTAGGTATCGGTTTCGGTTAGTGCTAG` — result for “fitted relative affinity”: 8.84 z-score.
`GACGGTATTGGGACTGGGGACGTGCTA` — result for “fitted relative affinity”: -0.288 z-score.
`TACGGTTTCGACTTTCGGGACGTGCTA`: “fitted relative affinity” 3.9 z-score.
For `GCCCCTTTCCTTTGCCTCTGGTGCTAG`, “fitted relative affinity” read 3.73 z-score.
`TTATGTTCCCTTTTCCTTTAGTGCTAG`: “fitted relative affinity” 6.85 z-score.
Under “fitted relative affinity”, `TTAGGTATCGGTTTCGGTTTGTGCTAG` is recorded as 9.42 z-score.
For `ATTAGAGGATAACTTACAGAGTGCTAG`, “fitted relative affinity” read -0.0654 z-score.
Under “fitted relative affinity”, `TTAGGTCTCCTTTTCCTTAAGTGCTAG` is recorded as 5.41 z-score.
`TCATCTCCCATTATATTACTGTGCTAG` — result for “fitted relative affinity”: 1.6 z-score.
For `GACGGACTGGGGCTTCGGGACGTGCTA`, “fitted relative affinity” read -1.15 z-score.
For `TTAGAACTAGGGTTTCGATTAGTGCTA`, “fitted relative affinity” read 1.45 z-score.
`CAACCTTTGTTTTTTTCTATGTGCTAG` — result for “fitted relative affinity”: 1.04 z-score.

For quick reference, copied from above (study 1):
`K39L` gave a binding fitness of -1.29 natural log.
The binding fitness of `R30K` is reported as -1.41 natural log.
`R53G` has a binding fitness of -1.49 natural log.
For `E33Q`, the binding fitness was -1.51 natural log.
For `T48G`, the binding fitness was -1.5 natural log.
The binding fitness of `A46M` is reported as -1.49 natural log.
`K39R` has a binding fitness of -1.41 natural log.
With `K36D` the binding fitness was -1.48 natural log.
